{"data": "Assay results collected from several papers", "note": "Each numbered part is a random draw from the data of one study; scales do not carry over between parts. “And” joins repeats or separate records; there may be more than shown.", "sequence of UniProt Q15139 (whole entry, looked up)": "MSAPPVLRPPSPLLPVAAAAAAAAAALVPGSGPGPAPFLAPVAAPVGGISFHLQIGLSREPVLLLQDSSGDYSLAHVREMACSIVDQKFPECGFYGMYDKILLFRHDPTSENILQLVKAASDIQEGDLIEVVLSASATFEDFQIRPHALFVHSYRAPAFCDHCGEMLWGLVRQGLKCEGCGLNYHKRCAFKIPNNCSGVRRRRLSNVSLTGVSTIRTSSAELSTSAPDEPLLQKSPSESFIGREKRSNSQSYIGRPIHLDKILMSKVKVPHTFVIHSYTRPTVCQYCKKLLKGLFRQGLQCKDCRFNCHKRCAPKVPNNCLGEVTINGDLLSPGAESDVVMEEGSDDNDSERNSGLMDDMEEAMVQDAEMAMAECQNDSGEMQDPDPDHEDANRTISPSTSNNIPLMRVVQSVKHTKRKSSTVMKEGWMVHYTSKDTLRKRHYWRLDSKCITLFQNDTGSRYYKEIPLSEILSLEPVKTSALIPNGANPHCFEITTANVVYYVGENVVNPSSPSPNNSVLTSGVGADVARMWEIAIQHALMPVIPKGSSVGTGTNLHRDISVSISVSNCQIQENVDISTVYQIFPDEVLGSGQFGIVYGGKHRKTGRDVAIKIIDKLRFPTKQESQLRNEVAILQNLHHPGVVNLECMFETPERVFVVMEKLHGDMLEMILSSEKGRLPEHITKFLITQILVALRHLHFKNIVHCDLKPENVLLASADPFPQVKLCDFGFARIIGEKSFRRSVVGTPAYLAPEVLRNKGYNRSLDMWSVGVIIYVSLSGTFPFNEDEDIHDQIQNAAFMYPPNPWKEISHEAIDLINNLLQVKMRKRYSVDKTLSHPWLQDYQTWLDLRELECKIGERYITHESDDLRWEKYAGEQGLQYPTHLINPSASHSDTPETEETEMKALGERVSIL", "sequence of UniProt O75747 (whole entry, looked up)": "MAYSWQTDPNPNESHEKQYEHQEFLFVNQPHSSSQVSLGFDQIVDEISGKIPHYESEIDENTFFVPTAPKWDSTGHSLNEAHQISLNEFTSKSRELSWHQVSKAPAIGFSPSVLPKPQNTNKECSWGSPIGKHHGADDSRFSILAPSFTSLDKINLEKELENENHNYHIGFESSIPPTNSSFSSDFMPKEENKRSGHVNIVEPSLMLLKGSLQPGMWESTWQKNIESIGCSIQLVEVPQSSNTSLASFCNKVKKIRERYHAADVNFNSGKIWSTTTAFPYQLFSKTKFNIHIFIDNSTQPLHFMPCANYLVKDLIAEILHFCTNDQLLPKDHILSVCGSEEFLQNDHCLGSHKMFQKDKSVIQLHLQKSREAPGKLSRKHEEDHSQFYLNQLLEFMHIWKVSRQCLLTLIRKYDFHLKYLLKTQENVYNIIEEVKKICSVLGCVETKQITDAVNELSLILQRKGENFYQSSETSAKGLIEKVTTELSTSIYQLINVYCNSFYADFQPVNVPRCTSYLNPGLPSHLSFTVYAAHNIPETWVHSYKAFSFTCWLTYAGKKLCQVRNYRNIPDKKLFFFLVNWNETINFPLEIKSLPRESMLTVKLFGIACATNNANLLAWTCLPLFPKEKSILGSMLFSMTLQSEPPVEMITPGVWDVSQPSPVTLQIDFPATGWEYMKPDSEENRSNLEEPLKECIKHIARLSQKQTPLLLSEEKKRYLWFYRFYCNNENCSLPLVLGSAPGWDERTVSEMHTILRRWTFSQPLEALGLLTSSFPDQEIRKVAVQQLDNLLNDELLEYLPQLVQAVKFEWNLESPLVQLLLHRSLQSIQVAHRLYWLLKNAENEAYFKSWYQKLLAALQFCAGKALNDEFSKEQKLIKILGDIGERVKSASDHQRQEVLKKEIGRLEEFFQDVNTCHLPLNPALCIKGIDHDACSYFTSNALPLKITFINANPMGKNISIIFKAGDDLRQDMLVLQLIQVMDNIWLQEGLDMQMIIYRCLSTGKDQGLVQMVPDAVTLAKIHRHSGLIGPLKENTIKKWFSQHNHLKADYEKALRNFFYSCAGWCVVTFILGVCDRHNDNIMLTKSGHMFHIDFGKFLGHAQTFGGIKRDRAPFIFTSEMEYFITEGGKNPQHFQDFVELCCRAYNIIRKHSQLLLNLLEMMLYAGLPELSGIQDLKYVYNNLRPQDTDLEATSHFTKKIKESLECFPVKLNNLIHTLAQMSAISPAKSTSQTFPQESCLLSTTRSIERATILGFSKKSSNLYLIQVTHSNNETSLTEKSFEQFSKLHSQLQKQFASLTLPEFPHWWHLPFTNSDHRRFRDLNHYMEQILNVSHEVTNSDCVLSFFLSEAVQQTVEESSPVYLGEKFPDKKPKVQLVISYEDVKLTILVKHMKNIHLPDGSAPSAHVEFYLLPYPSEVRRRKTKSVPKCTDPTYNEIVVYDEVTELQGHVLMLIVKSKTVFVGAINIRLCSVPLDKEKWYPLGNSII", "sequence of UniProt P42684 (whole entry, looked up)": "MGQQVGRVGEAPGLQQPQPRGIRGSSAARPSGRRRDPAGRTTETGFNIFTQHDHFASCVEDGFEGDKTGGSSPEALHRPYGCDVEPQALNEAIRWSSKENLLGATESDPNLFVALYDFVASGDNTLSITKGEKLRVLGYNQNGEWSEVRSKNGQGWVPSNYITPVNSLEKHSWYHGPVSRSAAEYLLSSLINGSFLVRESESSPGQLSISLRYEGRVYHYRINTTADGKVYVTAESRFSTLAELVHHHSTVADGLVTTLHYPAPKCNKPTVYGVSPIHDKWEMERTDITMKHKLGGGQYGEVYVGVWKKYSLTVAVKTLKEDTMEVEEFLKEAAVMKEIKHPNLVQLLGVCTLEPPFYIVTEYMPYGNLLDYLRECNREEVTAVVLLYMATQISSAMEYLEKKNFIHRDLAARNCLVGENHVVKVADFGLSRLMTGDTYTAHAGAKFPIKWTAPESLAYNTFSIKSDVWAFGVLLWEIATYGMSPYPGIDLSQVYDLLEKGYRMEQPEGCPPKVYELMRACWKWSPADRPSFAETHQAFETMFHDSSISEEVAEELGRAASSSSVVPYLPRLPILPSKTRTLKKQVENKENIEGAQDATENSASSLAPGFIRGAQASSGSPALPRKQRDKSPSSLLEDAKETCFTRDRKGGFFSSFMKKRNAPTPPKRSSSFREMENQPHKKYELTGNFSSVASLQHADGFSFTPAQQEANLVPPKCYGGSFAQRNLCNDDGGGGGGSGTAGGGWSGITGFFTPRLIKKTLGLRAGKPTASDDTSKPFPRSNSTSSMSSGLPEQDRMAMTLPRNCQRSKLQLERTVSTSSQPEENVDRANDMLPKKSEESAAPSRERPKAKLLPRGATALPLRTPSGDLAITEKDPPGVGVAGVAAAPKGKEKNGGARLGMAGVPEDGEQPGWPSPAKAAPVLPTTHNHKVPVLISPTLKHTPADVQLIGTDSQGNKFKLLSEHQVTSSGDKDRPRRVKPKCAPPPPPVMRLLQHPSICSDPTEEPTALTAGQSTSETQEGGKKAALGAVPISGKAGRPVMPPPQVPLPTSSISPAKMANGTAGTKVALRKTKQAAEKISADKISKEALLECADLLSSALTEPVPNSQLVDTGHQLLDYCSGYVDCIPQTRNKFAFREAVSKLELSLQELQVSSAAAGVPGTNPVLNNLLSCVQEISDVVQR", "sequence of UniProt O43293 (whole entry, looked up)": "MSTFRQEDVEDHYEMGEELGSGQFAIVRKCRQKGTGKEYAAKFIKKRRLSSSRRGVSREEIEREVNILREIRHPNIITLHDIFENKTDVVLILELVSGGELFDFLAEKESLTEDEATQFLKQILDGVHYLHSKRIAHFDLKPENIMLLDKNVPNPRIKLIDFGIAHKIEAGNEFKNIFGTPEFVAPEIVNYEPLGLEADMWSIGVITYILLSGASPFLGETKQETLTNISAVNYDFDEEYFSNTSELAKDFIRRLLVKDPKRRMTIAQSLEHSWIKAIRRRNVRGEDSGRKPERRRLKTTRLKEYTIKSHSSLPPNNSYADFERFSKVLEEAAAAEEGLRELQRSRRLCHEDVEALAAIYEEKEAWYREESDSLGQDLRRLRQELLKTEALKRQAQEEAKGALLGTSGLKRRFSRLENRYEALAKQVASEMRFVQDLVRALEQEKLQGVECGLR", "sequence of UniProt P19784 (whole entry, looked up)": "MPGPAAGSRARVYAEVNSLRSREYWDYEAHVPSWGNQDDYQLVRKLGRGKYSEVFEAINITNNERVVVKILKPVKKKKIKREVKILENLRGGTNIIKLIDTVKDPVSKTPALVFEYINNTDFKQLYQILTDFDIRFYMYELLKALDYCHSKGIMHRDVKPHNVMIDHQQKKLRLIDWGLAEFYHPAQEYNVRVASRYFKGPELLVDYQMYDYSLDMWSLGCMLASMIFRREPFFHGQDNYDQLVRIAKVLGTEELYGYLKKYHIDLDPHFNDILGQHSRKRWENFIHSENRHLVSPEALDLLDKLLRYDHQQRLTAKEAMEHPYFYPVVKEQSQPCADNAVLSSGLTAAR"}
{"data": "Set 1", "Compound": "COc1cc(C(=O)N2CCC(N3CCN(C)CC3)CC2)ccc1Nc1ncc2c(n1)N(C)c1ccccc1C(=O)N2C", "technique": "KINOMEscan", "concentration": "10 µM", "baseline": "DMSO control", "reading": "lower = stronger binding"}
{"target": "DDR2", "binding": "100%"}
{"target": "STK16", "binding": "62%"}
{"target": "PRKD2", "binding": "59%"}
{"target": "MKK7", "binding": "100%"}
{"target": "NEK7", "binding": "100%"}
{"target": "CDK9", "binding": "100%"}
{"target": "PIP5K2C", "binding": "40%"}
{"target": "PCTK3", "binding": "100%"}
{"target": "AKT3", "binding": "100%"}
{"target": "MST3", "binding": "87%"}
{"target": "MEK4", "binding": "100%"}
{"target": "DAPK3", "binding": "67%"}
{"data": "Set 2", "target": "Myosin light chain kinase 2, skeletal/cardiac muscle (MYLK2, Homo sapiens, UniProt Q9H1R3)", "read-out": "enzyme activity", "action": "inhibitor", "concentration": "0.5 µM", "baseline": "control", "sequence of UniProt Q9H1R3 (whole entry, looked up)": "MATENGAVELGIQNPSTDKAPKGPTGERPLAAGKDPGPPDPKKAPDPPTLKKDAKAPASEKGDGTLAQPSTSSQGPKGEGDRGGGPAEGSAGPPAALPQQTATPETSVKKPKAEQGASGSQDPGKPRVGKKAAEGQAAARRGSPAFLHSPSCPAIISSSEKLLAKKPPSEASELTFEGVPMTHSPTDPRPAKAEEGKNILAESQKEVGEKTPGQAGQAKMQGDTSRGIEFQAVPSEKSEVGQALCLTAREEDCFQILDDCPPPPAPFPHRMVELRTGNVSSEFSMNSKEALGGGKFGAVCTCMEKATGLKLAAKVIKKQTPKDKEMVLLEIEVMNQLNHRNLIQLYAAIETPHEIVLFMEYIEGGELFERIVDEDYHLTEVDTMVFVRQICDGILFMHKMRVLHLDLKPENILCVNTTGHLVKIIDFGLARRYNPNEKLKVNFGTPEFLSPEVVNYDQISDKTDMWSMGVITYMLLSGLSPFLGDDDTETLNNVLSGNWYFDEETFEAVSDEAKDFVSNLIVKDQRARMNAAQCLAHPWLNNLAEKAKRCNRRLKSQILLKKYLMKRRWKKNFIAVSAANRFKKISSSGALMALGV"}
{"Structure (SMILES)": "O=C(Nc1cccc(Nc2nccc(Nc3cccc(C(F)(F)F)c3)n2)c1)C1CC1", "remaining activity [%]": 93.6}
{"Structure (SMILES)": "Cn1nc2c3c(cccc31)C(=O)c1ccccc1-2", "remaining activity [%]": 78.8}
{"Structure (SMILES)": "CCOc1nc(NC(=O)Cc2cc(OC)ccc2OC)cc(N)c1C#N", "remaining activity [%]": 99.6}
{"Structure (SMILES)": "c1ccc(-c2cnc(Nc3ccc(OCCN4CCCC4)cc3)s2)cc1", "remaining activity [%]": 28.7}
{"Structure (SMILES)": "CCN(CC)C(=O)c1ccc(Nc2nc(OCC3CCCCC3)c3[nH]cnc3n2)cc1", "remaining activity [%]": 94.7}
{"Structure (SMILES)": "COc1cc2ncnc(Nc3ccc(O)c(Br)c3)c2cc1OC", "remaining activity [%]": 87.3}
{"Structure (SMILES)": "COc1cc2c(cc1OC)-c1[nH]nc(Nc3cccc(F)c3)c1C2", "remaining activity [%]": 86.4}
{"Structure (SMILES)": "CCN(CC)CCNC(=O)c1c(C)[nH]c(/C=C2\\C(=O)Nc3ccc(Cl)cc32)c1C", "remaining activity [%]": 10}
{"Structure (SMILES)": "C[C@@H]1CCN(C(=O)CC#N)C[C@@H]1N(C)c1ncnc2[nH]ccc12", "remaining activity [%]": 99}
{"Structure (SMILES)": "COc1cc2ncnc(Nc3cccc(Cl)c3)c2cc1OC", "remaining activity [%]": 90.1}
{"Structure (SMILES)": "N#C/C(=C\\c1ccc(O)c(O)c1)C(=O)NCc1ccccc1", "remaining activity [%]": 97.9}
{"Structure (SMILES)": "N#Cc1c(NC(=O)c2cccc3ccccc23)sc2c1CCCC2", "remaining activity [%]": 101}
{"Structure (SMILES)": "c1ccc(-c2[nH]ncc2-c2ccnc3ccccc23)nc1", "remaining activity [%]": 98.3}
{"Structure (SMILES)": "Cc1nc2cc3nc(-c4cccs4)cnc3cc2n1C", "remaining activity [%]": 74.5}
{"Structure (SMILES)": "Nc1cccc(-c2cc3c(Oc4cccc(O)c4)ncnc3[nH]2)c1", "remaining activity [%]": 29.9}
{"Structure (SMILES)": "Ic1cccc(CSc2nnc(-c3ccncc3)o2)c1", "remaining activity [%]": 101}
{"Structure (SMILES)": "O=C(NC(NC(=S)Nc1ccc(F)c([N+](=O)[O-])c1)C(Cl)(Cl)Cl)C(c1ccccc1)c1ccccc1 (centres unmarked)", "remaining activity [%]": 104}
{"Structure (SMILES)": "O=C1C(Cl)=C(N2C(=O)CCC2=O)C(=O)c2ccccc21", "remaining activity [%]": 98.1}
{"Structure (SMILES)": "CN(C)C[C@H]1CCn2c(c(C3=C(c4cn(C)c5ccccc45)C(=O)NC3=O)c3ccccc32)C1", "remaining activity [%]": 74.2}
{"Structure (SMILES)": "CCN(CC)CCNC(=O)c1c(C)[nH]c(/C=C2\\C(=O)Nc3ccc(F)cc32)c1C", "remaining activity [%]": 7.74}
{"Structure (SMILES)": "CN([C@@H](Cc1ccc(OS(=O)(=O)c2cccc3cnccc23)cc1)C(=O)N1CCN(c2ccccc2)CC1)S(=O)(=O)c1cccc2cnccc12", "remaining activity [%]": 98.8}
{"Structure (SMILES)": "Cc1cc2ncc(-c3ccccc3)nc2cc1C", "remaining activity [%]": 99.7}
{"Structure (SMILES)": "Cc1cn(-c2cc(NC(=O)c3ccc(C)c(Nc4nccc(-c5cccnc5)n4)c3)cc(C(F)(F)F)c2)cn1", "remaining activity [%]": 111}
{"Structure (SMILES)": "O=c1cc(-c2cccc3c2Sc2ccccc2S3)oc(N2CCOCC2)c1", "remaining activity [%]": 97.4}
{"data": "Set 3", "cell line": "mouse MPNST tumor cells", "technique": "high-content nuclear imaging", "measured": "cell number", "concentration": "10 µM", "time": "12 h", "setting": "mean of 2 replicates", "baseline": "plate mean", "reading": "higher = more cells"}
{"SMILES": "N#Cc1ccc(COC[C@H]2O[C@@H](n3c(NCc4ccc(Cl)c(Cl)c4)nc4c(N)ncnc43)[C@H](O)[C@@H]2O)cc1", "nuclei count": "1.42 z-score"}
{"SMILES": "CN(C)C/C=C/C(=O)Nc1cc2c(Nc3ccc(F)c(Cl)c3)ncnc2cc1O[C@H]1CCOC1", "nuclei count": "-5.25 z-score"}
{"SMILES": "COC1CCN(c2cccc(-c3cc(NC(C)=O)nc(-n4nc(C)cc4C)n3)n2)CC1", "nuclei count": "4.68 z-score"}
{"SMILES": "O=C(O)CCNc1cc(N2CCc3ccccc3CC2)nc(-c2cccnc2)n1", "nuclei count": "0.317 z-score"}
{"SMILES": "c1ccc2[nH]c(-c3cscn3)nc2c1", "nuclei count": "-0.276 z-score and 0.153 z-score"}
{"SMILES": "COc1nc2sc(C(=O)NC3CC3)c(N)c2c(C)c1Cl", "nuclei count": "-0.514 z-score"}
{"data": "Set 4", "SMILES": "CCS(=O)(=O)c1cc2cc(C[C@@](O)(CC(C)(C)c3ccc(F)cc3C(N)=O)C(F)(F)F)[nH]c2cn1", "read-out": "cell-free assay", "technique": "competition with immobilised ligand", "concentration": "1 µM"}
{"target": "CDK17 (Homo sapiens, UniProt Q00537)", "remaining binding": "82%"}
{"target": "RET (Homo sapiens, UniProt P07949, V804M)", "remaining binding": "74%"}
{"target": "PRKD1 (Homo sapiens, UniProt Q15139)", "remaining binding": "100%"}
{"target": "CSNK2A2 (Homo sapiens, UniProt P19784)", "remaining binding": "83%"}
{"target": "PIK3C2G (Homo sapiens, UniProt O75747)", "remaining binding": "100%"}
{"target": "ULK2 (Homo sapiens, UniProt Q8IYT8)", "remaining binding": "85%"}
{"target": "DAPK3 (Homo sapiens, UniProt O43293)", "remaining binding": "100%"}
{"target": "PTK2B (Homo sapiens, UniProt Q14289)", "remaining binding": "100%"}
{"target": "SLK (Homo sapiens, UniProt Q9H2G2)", "remaining binding": "88%"}
{"target": "SGK2 (Homo sapiens, UniProt Q9HBY8)", "remaining binding": "57%"}
{"target": "BMPR2 (Homo sapiens, UniProt Q13873)", "remaining binding": "91%"}
{"target": "ABL2 (Homo sapiens, UniProt P42684)", "remaining binding": "88%"}
{"target": "STK39 (Homo sapiens, UniProt Q9UEW8)", "remaining binding": "84%"}
{"target": "TAOK1 (Homo sapiens, UniProt Q7L7X3)", "remaining binding": "73%"}
{"target": "KIT (Homo sapiens, UniProt P10721, V559D)", "remaining binding": "100%"}
{"target": "PIK3CA (Homo sapiens, UniProt P42336, I800L)", "remaining binding": "70%"}
{"target": "NUAK2 (Homo sapiens, UniProt Q9H093)", "remaining binding": "84%"}
{"note": "A few entries again (set 2):"}
{"Structure (SMILES)": "O=C1C(Cl)=C(N2C(=O)CCC2=O)C(=O)c2ccccc21", "remaining activity [%]": 98.1}
{"Structure (SMILES)": "CN(C)C[C@H]1CCn2c(c(C3=C(c4cn(C)c5ccccc45)C(=O)NC3=O)c3ccccc32)C1", "remaining activity [%]": 74.2}
{"Structure (SMILES)": "CCN(CC)CCNC(=O)c1c(C)[nH]c(/C=C2\\C(=O)Nc3ccc(F)cc32)c1C", "remaining activity [%]": 7.74}
{"Structure (SMILES)": "CN([C@@H](Cc1ccc(OS(=O)(=O)c2cccc3cnccc23)cc1)C(=O)N1CCN(c2ccccc2)CC1)S(=O)(=O)c1cccc2cnccc12", "remaining activity [%]": 98.8}
